Results collected from several papers.
Parts stem from different laboratories: compare values within a part only. Positions count from the first letter of the parent shown.

Sample 1 — technique: RNA Bind-n-Seq; form: RNA; matrix: in vitro; tested at: not given; notes: RNA with constant flanks, ends assumed; baseline: input RNA pool; reading: higher = stronger binding
Target: RING finger protein unkempt homolog, zinc fingers 1-6, GST-SBP tag (UNK, Homo sapiens, UniProt Q9C0B0, residues 30-357)
Residues (chain): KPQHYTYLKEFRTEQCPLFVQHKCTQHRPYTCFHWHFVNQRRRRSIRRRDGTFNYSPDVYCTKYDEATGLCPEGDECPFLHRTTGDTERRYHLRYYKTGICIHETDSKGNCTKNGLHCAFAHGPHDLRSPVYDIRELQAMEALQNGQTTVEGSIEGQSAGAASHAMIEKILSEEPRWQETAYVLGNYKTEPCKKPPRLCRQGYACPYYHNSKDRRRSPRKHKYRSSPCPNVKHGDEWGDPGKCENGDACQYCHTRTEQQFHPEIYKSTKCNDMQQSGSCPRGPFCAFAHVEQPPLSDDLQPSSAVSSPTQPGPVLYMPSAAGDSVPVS
For `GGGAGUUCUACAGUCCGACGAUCUACAUGUUUUCUCUUGUGCAUCAAUUUAAAUGUUACAACCAUGUAAACUACUUCUCUUGUCCGACCGAUUUUCACCUAGACUUUUUUUCCCAAAUCAGAAAAAAAAUACACACUAAAUAACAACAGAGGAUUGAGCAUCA`, the bound/input enrichment was 0.602 ratio.
`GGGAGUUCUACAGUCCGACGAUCACUGAAAUACUAGUAAAUUACUUGAGUUUUUCACGAUGACUUCAGAGGAGGGGUCAUCACCCGGUGCUUUGUCCUUUUUGUACUAUGAUUCACCCAUCUCUUGGAUUGGAUGUAGCAAUACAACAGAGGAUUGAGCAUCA` gave a bound/input enrichment of 0.491 ratio.
With `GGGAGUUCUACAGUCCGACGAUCCCAGAUGACCGGUCGCAGGGAGCAGCCAUUGGGGGGCGGCCAGGACUGCCUGGCCCAGAGCACCGCCCUGGCACAGAAUCUCAGCCUUCGUCGCCUUCUCCAACCCCAUCACCACCCCCACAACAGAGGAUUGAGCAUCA` the bound/input enrichment was 0.173 ratio.
For `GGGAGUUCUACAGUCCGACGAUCGAAUUCAUGCAUGAGACCCAUGAUGGAGUCCAGGAUAUGGCUUGUGAUACUUUCAUUAAAACCGCCCAAAAAUGCCGCAGGCAUUUCGUUCAGGUUCAGGUUGGAGAAGUGAUGCCAUUUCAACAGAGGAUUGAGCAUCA`, the bound/input enrichment was 0.178 ratio.
`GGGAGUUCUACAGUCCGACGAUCGACCAAAGUUUUUGAUCAUAUGUUUUGAGAUAAUUGUAUGAUCAAGUUGUAUAUUUAAGUCUCCGUGUUUGAAAUUGCAGUUAUAAUUGUUCAUAGGAUUGCUAUUUAAGAUGAUUUGAACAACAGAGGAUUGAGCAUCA` has a bound/input enrichment of 0.369 ratio.
`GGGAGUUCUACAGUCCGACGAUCAAAUUUAAAAAUUCUUUCUGUUGUACAGAAUUAAAUGAAGAAAUCAAACAGUCUCAUUCUUUCCGUUUACAGACACCUUGUUCAAAAGGUAGUGAAUUAAGAAUGAUUAAUAAAAAUCCUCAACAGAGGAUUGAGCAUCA` gave a bound/input enrichment of 0.344 ratio.
For `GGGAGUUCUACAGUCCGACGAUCUUGUGCAGAGCCCAACAUGAGCUUCAUUUCCAAGCUGCCACCUAUCUCUGCCUCCUGCGCCGCAUCCGGAAACAUGUGGCCCUACAUCAGGAAUUUCAUGGCAAGGGAGAUACAACUCGUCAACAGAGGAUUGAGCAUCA`, the bound/input enrichment was 0.0827 ratio.
The bound/input enrichment of `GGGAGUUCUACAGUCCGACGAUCGAAGGUUUCUUUACCAACGGUUUGACUCUUGGCGCGAAGAAAUGCUCAGUGAUCAGAGACCGUCUAUACGUCGAUGGUGACUGCACAAUGGACAUCCGGACAAAGAGUCAAGGUGGGGAGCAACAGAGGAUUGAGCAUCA` is reported as 0.128 ratio.

Sample 2 — technique: competition protein-binding microarray; form: double-stranded DNA, one strand shown; matrix: in vitro; tested at: 2 µM; added: Pho4 competitor, 0.05 µM; reading: higher = stronger binding
Target: Centromere-binding protein 1, full length, His-tagged (CBF1, Saccharomyces cerevisiae, UniProt P17106, residues 1-351)
Chain of UniProt P17106 (whole entry, looked up): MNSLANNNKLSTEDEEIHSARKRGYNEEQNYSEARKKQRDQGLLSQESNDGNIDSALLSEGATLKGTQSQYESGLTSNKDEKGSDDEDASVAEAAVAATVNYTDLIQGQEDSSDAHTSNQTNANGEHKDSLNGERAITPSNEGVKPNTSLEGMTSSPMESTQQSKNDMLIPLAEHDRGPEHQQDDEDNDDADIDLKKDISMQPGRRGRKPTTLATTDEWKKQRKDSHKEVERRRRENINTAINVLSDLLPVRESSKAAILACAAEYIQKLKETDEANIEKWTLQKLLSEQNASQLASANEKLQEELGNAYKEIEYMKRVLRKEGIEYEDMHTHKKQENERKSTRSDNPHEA
Notes: whole 60-bp probe, lowest competitor level
With `GGTGTTTGGTAGAGTCAGGTGATTTACTGATTCTTCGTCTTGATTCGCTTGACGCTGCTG` the fluorescence intensity was 1380 a.u.
The fluorescence intensity of `CGTCCTAGTGATTGGACGGTGGGTGCCATGAGGAAGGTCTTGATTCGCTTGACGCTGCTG` is reported as 76.4 a.u.
The fluorescence intensity of `ACTCCGGTGTTGAAGTCCGTGTCTGTCCAACCAAGAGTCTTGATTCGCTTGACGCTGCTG` is reported as 65.1 a.u.
`GCCGAACTCTTTTATCATGTGATATGAATATGTTGGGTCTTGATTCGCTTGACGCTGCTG` has a fluorescence intensity of 1880 a.u.
`TTGCGTTTACGCTCGCGCGTGGGACAACTAACGCAAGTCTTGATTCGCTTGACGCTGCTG` has a fluorescence intensity of 63 a.u.
`ACACAGATTGGCCATCACGCACCCATAATCATTTCTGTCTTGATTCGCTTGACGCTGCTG` gave a fluorescence intensity of 147 a.u.
`GATGAACTGAAAAGGCACATGAGAACGCATACAGGGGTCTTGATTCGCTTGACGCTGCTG` gave a fluorescence intensity of 88.8 a.u.
The fluorescence intensity of `TGATTGTGGAATTGGCAGGCGTGAAGTTCAAATCCGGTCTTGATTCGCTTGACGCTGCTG` is reported as 91.5 a.u.

Sample 3 — target: CCND3, cyclin fold, Cln2 fusion (human); technique: yeast growth competition, sequencing; matrix: yeast; notes: weak parent motif; baseline: not given; reading: higher = stronger binding
Starting sequence: SLBP docking peptide (human); ARYKRKLLINDFG; partner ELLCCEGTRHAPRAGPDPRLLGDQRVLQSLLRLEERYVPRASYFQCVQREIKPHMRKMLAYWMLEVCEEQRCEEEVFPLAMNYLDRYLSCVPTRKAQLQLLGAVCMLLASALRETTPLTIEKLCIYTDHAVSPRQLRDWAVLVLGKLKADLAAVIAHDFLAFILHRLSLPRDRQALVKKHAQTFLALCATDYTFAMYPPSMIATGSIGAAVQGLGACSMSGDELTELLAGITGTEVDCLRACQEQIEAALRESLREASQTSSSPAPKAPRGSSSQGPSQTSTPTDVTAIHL
Under “normalised enrichment score”, `ARYKRKLLINDFE [G13E]` is recorded as 0.186.
Under “normalised enrichment score”, `ARYKRKLLCNDFG [I9C]` is recorded as 0.166.
`ARYKGKLLINDFG [R5G]` — result for “normalised enrichment score”: 0.101.
Under “normalised enrichment score”, `ARYNRKLLINDFG [K4N]` is recorded as 0.142.
Under “normalised enrichment score”, `ARYKRKLLINHFG [D11H]` is recorded as 0.0718.
`YRYKRKLLINDFG [A1Y]`: “normalised enrichment score” 0.0862.
Under “normalised enrichment score”, `ARYKRKLLINDFH [G13H]` is recorded as 0.112.
For `ARYKRKLLINDFA [G13A]`, “normalised enrichment score” read 0.133.

Other studies, line by line
Starting sequence: PafA, mature enzyme, eGFP fusion (Elizabethkingia meningoseptica, UniProt Q9KJX5); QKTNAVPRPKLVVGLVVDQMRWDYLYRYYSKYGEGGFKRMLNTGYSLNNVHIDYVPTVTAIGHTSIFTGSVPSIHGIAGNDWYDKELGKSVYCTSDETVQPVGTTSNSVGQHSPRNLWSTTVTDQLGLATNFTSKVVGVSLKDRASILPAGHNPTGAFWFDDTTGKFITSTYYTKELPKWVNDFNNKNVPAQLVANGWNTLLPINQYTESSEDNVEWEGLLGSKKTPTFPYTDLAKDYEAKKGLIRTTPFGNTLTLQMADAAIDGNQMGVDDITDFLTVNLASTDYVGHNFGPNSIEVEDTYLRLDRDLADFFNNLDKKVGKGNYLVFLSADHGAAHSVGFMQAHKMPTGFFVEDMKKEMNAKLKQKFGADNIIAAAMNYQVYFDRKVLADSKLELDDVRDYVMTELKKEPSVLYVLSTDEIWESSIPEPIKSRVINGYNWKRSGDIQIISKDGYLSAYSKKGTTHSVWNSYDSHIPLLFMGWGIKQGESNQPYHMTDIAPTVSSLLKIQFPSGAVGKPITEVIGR
`T208V`: “phosphate dissociation constant” 672 µM (inorganic phosphate, free oxyanion; microfluidic competitive inhibition; in vitro, cell-free expressed; not given, derived from inhibition constants, unchanged parent 615000 nM; lower = stronger binding).

Excerpt of the above (sample 1):
`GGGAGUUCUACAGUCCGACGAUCGACCAAAGUUUUUGAUCAUAUGUUUUGAGAUAAUUGUAUGAUCAAGUUGUAUAUUUAAGUCUCCGUGUUUGAAAUUGCAGUUAUAAUUGUUCAUAGGAUUGCUAUUUAAGAUGAUUUGAACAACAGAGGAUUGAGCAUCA` has a bound/input enrichment of 0.369 ratio.
`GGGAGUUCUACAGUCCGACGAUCAAAUUUAAAAAUUCUUUCUGUUGUACAGAAUUAAAUGAAGAAAUCAAACAGUCUCAUUCUUUCCGUUUACAGACACCUUGUUCAAAAGGUAGUGAAUUAAGAAUGAUUAAUAAAAAUCCUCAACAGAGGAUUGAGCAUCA` gave a bound/input enrichment of 0.344 ratio.
For `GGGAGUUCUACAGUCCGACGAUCUUGUGCAGAGCCCAACAUGAGCUUCAUUUCCAAGCUGCCACCUAUCUCUGCCUCCUGCGCCGCAUCCGGAAACAUGUGGCCCUACAUCAGGAAUUUCAUGGCAAGGGAGAUACAACUCGUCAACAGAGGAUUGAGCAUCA`, the bound/input enrichment was 0.0827 ratio.
